Measurements collected from several papers.
Numbered parts are unrelated; each lists some results of a single study. Values joined by “and” are separate records of one study, mostly repeats; a detail may differ.
UniProt O00238, sequence (whole entry, looked up): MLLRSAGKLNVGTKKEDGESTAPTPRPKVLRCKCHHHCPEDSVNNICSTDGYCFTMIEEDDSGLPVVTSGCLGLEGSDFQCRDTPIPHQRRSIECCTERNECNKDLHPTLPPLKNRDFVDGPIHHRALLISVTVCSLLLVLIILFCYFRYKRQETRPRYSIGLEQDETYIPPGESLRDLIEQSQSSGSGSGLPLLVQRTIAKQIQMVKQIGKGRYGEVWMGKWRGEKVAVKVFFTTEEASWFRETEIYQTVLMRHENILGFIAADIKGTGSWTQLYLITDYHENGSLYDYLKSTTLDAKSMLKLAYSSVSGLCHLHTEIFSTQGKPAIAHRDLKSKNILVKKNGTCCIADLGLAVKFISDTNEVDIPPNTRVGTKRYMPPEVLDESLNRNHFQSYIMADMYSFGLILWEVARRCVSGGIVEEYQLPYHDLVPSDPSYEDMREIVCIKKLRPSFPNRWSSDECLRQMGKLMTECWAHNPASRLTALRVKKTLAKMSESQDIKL
UniProt P42336, sequence (whole entry, unmodified, looked up): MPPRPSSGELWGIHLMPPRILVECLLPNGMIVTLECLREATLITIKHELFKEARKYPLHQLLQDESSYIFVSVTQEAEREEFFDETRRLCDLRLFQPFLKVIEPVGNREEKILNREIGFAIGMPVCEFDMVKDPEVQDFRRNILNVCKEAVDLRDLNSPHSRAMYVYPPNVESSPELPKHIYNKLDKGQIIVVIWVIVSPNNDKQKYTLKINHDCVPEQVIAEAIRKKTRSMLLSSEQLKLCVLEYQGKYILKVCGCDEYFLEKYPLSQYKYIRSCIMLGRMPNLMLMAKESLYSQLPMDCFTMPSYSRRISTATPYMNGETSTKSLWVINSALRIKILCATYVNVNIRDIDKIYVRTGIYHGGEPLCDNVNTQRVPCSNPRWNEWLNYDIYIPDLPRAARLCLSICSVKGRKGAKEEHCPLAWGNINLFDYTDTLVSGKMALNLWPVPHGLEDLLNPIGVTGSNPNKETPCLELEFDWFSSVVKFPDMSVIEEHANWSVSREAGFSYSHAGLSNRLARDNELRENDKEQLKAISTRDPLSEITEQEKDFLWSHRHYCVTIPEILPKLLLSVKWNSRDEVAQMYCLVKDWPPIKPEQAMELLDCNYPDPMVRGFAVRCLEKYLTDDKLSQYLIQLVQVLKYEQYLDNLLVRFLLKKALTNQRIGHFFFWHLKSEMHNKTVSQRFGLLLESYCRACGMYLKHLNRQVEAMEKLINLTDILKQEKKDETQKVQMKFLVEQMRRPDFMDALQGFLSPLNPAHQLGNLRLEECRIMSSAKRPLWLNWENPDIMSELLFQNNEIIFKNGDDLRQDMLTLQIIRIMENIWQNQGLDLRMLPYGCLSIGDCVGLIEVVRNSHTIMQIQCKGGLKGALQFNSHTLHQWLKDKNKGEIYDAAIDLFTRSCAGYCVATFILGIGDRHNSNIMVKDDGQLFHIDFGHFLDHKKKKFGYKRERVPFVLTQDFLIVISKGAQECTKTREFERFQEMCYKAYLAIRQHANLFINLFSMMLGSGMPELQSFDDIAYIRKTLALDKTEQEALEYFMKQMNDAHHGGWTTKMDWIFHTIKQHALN
UniProt Q9UQB9, sequence (whole entry, looked up): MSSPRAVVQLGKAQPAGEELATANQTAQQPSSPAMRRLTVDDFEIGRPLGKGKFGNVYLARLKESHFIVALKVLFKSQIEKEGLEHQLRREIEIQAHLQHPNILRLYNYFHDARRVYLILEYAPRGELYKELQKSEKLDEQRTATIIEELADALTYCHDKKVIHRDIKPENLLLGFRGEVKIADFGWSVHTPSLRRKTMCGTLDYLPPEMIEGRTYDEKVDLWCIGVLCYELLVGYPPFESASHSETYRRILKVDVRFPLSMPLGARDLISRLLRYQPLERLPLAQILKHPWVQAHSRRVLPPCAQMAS

Series 1
Host: human
Medium: microsomes or S9
Concentration: 2 µM
Time: 0.5 h
SMILES | remaining compound
Cc1c(Cl)c(C(=O)NN2CCOCC2)nn1C | 90%
Nc1nc(F)c2ncn(C3CC(O)C(CO)O3)c2n1 (stereo not drawn) | 6.55%
COCCN(Cc1ccc(C)c(Br)c1)S(=O)(=O)c1ccc2[nH]c(=O)ccc2c1 | 2.3%

Series 2
Target: RAC-beta serine/threonine-protein kinase (AKT2, Homo sapiens, UniProt P31751)
UniProt P31751, sequence (whole entry, looked up): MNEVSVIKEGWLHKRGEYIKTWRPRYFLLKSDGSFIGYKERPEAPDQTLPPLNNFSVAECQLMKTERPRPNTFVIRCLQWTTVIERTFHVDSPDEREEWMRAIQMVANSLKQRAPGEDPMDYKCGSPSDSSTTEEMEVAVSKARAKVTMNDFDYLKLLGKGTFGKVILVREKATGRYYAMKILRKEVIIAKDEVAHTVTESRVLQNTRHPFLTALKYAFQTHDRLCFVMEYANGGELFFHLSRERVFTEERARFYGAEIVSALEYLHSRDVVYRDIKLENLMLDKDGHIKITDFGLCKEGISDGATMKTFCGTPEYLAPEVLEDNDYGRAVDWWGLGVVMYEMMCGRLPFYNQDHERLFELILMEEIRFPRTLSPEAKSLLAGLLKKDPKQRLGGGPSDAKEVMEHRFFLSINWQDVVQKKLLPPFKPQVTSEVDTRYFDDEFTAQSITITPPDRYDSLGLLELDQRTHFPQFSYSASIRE
Effect on: enzyme activity
Action: inhibitor
Concentration: 0.5 µM
Baseline: control
SMILES | remaining activity
Nc1ccc2ncnc(NCCc3ccc(Oc4ccccc4)cc3)c2c1 | 101%
O=S(=O)(c1cccc2cnccc12)N1CCCNCC1 | 115%
OCC(O)CCON=C1C(c2c(O)[nH]c3ccccc23)=Nc2ccccc21 (stereo not drawn) | 90.1%
COc1ccc(OC)c2c(=S)c3ccccc3[nH]c12 | 94.6%
O=C(Nc1cccc(Nc2cc(Nc3cccc(C(F)(F)F)c3)ncn2)c1)C1CC1 | 103%
COc1ccc(C(=O)Nc2sc3c(c2C(N)=O)CCCC3)cc1OC | 97%
CCOC(=O)c1c(C)[nH]c(/C=C2\C(=O)Nc3ccccc32)c1C | 87.6%
N#CC(C#N)=C(N)/C(C#N)=C/c1ccc(O)cc1 | 92.8%
Cn1c2ccccc2c2c3c(c4c5ccccc5n(CCC#N)c4c21)CNC3=O | 110%
O=C(O)c1ccc2c3c1cccc3c(=O)n1c3ccccc3nc21 | 101%
COc1ccc(CNC(=O)Nc2ncc([N+](=O)[O-])s2)cc1 | 103%
O=C1NC(=O)C(c2cn(CCCn3ccnc3)c3ccccc23)=C1Nc1ccccc1 | 92.3%
Cc1cccc(-c2[nH]c(C(C)(C)C)nc2-c2ccc3c(c2)OCO3)n1 | 80.1%
Cc1ccc(NC(=O)c2ccc(CN3CCN(C)CC3)cc2)cc1Nc1nc(-c2cccnc2)cs1 | 103%
Nc1ncnc2n[nH]c(Nc3ccc(F)cc3)c12 | 108%
O=C(CCCc1ccc(-c2ccccc2F)cc1)Nc1ccc(O)cc1 | 101%
CO[C@H]1C[C@@H]2CC[C@@H](C)[C@@](O)(O2)C(=O)C(=O)N2CCCC[C@H]2C(=O)O[C@H]([C@H](C)C[C@@H]2CC[C@@H](O)[C@H](OC)C2)CC(=O)[C@H](C)/C=C(\C)[C@@H](O)[C@@H](OC)C(=O)[C@H](C)C[C@H](C)/C=C/C=C/C=C/1C | 96.1%
CC(C)[C@H](CO)Nc1nc(Nc2cc(N)cc(Cl)c2)c2ncn(C(C)C)c2n1 | 100%
O=C1NC(=O)C(c2cn(CCCO)c3ncccc23)=C1c1cnccn1 | 114%
C#Cc1cccc(Nc2ncnc3cc(OCCOC)c(OCCOC)cc23)c1 | 108%
Nc1[nH]nc2nc3ccccc3nc12 | 90.1%
Oc1ccc(-c2nc(-c3ccncc3)c(-c3ccc(F)cc3)[nH]2)cc1 | 99%
COc1cc2nccc(Oc3ccc(NC(=S)NC(=O)c4ccccc4C)cc3)c2cc1OC | 102%
O=c1c2ccccc2[nH]c(=S)n1CCN1CCC(=C(c2ccc(F)cc2)c2ccc(F)cc2)CC1 | 101%
CN(C)c1ccc(C=C2C(=O)Nc3ccccc32)cc1 | 98.1%

Series 3
Compound: CC(=O)N[C@@H](Cc1c[nH]c2ccccc12)C(=O)N[C@@H](CCC(=O)C=[N+]=[N-])C(=O)OC(C)C
test system | conditions | tumour volume
mouse, EL4 tumour | subcutaneous, 1 mg/kg, day 16 | 0 mm3 and 69.6 mm3
mice, MC-38 tumour rechallenge | 1 mg/kg, day 50 after injection | 0 mm3
mice, MC-38 tumour rechallenge | 0.26 mg/kg, day 71 after injection | 0 mm3
mouse, EL4 tumour | subcutaneous, 0.1 mg/kg, day 11 | 584 mm3 and 738 mm3 and 692 mm3 and 653 mm3 and 1340 mm3 and 2040 mm3

Series 4
Target: DNA polymerase theta, ATPase domain (POLQ, Homo sapiens, UniProt O75417)
UniProt O75417, sequence (whole entry, unmodified, looked up): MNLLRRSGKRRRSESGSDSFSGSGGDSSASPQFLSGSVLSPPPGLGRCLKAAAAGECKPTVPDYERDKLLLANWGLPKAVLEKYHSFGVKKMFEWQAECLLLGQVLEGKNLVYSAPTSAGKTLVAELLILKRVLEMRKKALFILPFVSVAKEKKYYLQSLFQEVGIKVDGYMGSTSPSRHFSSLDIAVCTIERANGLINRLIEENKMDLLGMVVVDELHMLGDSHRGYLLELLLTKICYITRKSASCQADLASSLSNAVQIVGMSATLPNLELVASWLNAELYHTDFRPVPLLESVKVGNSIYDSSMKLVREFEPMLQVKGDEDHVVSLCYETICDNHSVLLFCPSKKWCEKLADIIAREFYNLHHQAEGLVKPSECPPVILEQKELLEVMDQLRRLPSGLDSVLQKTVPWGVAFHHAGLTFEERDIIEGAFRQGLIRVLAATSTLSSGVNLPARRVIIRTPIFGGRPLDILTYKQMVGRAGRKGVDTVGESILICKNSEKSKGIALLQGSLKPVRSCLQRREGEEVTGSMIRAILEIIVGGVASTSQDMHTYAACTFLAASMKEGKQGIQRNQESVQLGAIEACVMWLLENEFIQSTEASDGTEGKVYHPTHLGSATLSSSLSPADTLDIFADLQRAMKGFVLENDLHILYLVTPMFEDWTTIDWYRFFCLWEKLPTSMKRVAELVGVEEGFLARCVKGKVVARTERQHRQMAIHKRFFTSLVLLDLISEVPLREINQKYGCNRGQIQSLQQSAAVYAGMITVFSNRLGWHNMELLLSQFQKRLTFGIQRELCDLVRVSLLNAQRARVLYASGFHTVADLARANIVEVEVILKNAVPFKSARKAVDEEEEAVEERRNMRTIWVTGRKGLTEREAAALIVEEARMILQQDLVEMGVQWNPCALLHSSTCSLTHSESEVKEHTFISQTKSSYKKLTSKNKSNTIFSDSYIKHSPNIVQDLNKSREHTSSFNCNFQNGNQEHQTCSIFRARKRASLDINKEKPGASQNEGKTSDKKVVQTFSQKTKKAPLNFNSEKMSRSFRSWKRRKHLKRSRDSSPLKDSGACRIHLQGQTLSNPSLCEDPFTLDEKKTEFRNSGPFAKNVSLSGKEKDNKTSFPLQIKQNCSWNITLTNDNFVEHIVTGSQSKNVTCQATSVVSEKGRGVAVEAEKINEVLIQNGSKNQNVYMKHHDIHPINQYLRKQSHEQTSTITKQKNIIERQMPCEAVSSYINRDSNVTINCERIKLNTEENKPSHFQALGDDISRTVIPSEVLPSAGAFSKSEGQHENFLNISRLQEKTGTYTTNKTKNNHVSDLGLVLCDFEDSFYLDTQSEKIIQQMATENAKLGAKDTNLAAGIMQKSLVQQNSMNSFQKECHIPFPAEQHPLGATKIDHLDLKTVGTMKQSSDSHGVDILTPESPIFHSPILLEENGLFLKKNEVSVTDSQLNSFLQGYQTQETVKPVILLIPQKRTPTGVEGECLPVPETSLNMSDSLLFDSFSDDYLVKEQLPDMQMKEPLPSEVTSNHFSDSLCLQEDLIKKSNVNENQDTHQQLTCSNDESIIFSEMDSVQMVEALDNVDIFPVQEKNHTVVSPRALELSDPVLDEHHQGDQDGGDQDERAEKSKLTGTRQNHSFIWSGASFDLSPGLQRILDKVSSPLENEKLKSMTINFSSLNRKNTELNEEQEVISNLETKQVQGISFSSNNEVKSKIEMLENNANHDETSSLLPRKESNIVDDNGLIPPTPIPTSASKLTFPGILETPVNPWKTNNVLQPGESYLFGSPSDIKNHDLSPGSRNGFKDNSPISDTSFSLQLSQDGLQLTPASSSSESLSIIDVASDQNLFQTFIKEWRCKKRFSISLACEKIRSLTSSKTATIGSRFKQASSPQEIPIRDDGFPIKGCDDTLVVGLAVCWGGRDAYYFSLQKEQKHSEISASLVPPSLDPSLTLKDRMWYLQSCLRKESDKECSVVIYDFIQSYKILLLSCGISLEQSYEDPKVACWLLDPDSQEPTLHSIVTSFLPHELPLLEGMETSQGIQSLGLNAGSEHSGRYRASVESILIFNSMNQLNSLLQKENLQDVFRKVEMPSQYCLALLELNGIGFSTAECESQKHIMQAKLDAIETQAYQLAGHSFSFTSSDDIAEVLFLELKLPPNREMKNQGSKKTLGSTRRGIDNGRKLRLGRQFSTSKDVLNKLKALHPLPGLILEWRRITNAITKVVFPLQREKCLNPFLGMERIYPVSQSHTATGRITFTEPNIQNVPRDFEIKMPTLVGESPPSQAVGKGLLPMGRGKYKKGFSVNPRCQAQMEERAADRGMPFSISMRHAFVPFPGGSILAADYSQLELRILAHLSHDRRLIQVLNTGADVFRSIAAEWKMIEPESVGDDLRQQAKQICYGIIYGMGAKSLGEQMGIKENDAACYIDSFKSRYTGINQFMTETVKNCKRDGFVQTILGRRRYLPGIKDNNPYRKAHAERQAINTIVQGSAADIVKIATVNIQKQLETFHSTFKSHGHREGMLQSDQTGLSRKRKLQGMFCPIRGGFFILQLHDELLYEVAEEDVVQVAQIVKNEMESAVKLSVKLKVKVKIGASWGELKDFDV
Effect on: enzyme activity
Action: inhibitor
Concentration: 77 µM
Baseline: untreated
SMILES | remaining activity
O=C1c2cccc(O)c2C(=O)c2c(O)cc(CO)cc21 | 96.1%
C#C[C@]1(O)CC[C@H]2[C@@H]3CCC4=C(CCC(=O)C4)[C@H]3CC[C@@]21C | 92.2%
Cc1cccc(Nc2ccccc2C(=O)O)c1C | 98.2%
CC(=O)OCC[N+](C)(C)C | 103%

Series 5
Cell line: HuT78
Concentration: 2 µM
Time: 48 h
Baseline: untreated
SMILES | viability [%]
Cc1ccc(S(=O)(=O)/C=C/C#N)cc1 | 61.3
CNC(=O)c1c(F)cccc1Nc1nc(Nc2cc3c(ccn3C(=O)CN(C)C)cc2OC)nc2[nH]ccc12 | 96.9
Cc1[nH]nc2ccc(-c3cncc(OC[C@@H](N)Cc4ccccc4)c3)cc12 | 11.1
CNC(=O)c1cc(Oc2ccc(NC(=O)Nc3cc(C(C)(C)C)nn3-c3ccc4ncccc4c3)c(F)c2)ccn1 | 55.8
COc1cc2ncc(-c3ccccc3)nc2cc1OC | 93.5

Series 6
Structure (SMILES): CN1CCN(C(=O)c2ccc(NC(=O)Nc3ccc(N(C)c4ccnc(Nc5ccc(CS(C)(=O)=O)cc5)n4)cc3)cc2)CC1
Effect on: binding
Concentration: 1 µM
target | test | remaining binding [%]
DDR2 (Homo sapiens, UniProt Q16832) | competition with immobilised ligand | 0
RIPK2 (Homo sapiens, UniProt O43353) | competition with immobilised ligand | 94
PIK3CA (Homo sapiens, UniProt P42336, Q546K) | – | 100
PIK3C2G (Homo sapiens, UniProt O75747) | – | 100
BMPR1B (Homo sapiens, UniProt O00238) | competition with immobilised ligand | 1.1
PRKG2 (Homo sapiens, UniProt Q13237) | – | 100

Series 7
SMILES: CN(C)c1ncnc(-c2ccc3nc(Nc4cc(CN5CCN(C(=O)CC(F)(F)F)CC5)ccn4)[nH]c3c2)c1Cl
Effect on: cell-free assay
Method: competition with immobilised ligand
Concentration: 1 µM
target | remaining binding [%]
Tyrosine-protein kinase ABL1, non-phosphorylated (ABL1, Homo sapiens, UniProt P00519, F317L) | 29
Aurora kinase C (AURKC, Homo sapiens, UniProt Q9UQB9) | 100
NEK3 (Homo sapiens, UniProt P51956) | 69
HASPIN (Homo sapiens, UniProt Q8TF76) | 100

Excerpt of the above (series 5):
SMILES | viability [%]
Cc1[nH]nc2ccc(-c3cncc(OC[C@@H](N)Cc4ccccc4)c3)cc12 | 11.1
CNC(=O)c1cc(Oc2ccc(NC(=O)Nc3cc(C(C)(C)C)nn3-c3ccc4ncccc4c3)c(F)c2)ccn1 | 55.8
COc1cc2ncc(-c3ccccc3)nc2cc1OC | 93.5
